Experimental data collected from several papers.
Every numbered part comes from another study and shows a few of its results, in no order. Positions count from the first letter of the parent shown.

Series 1
Target: Sal-like protein 4, full length isoform B (SALL4, Homo sapiens, UniProt Q9UJQ4-2, residues 1-616)
Method: universal PBM
Form: double-stranded DNA, one strand shown
Medium: in vitro
Concentration: not given
Setting: 8-mer, flanks averaged, mean of replicates
Direction: higher = stronger binding
Construct (chain): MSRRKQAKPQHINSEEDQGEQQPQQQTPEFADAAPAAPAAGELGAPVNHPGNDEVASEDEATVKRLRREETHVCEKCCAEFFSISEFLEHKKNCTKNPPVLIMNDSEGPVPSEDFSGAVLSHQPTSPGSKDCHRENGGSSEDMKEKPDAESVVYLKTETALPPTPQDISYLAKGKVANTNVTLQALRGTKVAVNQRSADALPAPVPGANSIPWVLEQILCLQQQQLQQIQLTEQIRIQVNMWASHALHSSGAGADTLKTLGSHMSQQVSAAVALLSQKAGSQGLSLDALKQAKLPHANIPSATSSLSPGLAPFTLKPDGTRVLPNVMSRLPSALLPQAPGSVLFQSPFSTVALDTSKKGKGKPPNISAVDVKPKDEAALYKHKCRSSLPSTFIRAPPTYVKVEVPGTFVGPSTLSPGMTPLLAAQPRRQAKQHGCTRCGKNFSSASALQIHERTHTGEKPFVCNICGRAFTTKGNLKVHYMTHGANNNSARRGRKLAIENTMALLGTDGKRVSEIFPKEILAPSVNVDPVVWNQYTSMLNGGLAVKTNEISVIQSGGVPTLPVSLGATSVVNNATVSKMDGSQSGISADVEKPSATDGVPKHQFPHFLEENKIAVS
Oligonucleotide	E-score
ATTAATAA	0.471
TGGTGAAA	0.0522
CTACATCA	-0.0336
GATTGTTA	0.207
GACTCATC	-0.108
ACTGGGTC	-0.195
AGTGACCG	-0.222
CGGCTGGC	-0.342
GCCCTCGA	-0.118
ACTCCAAA	-0.00231
AGTGGGTA	-0.127
GGGGTTCA	-0.228
CATCCGTA	0.0367
AGTTGGGA	-0.0792
ACTAGATG	0.0461
CGTTTTGA	0.03
GGTGATCA	-0.0634
GGGCGTTA	-0.00438

Series 2
Target: RNA binding protein fox-1 homolog 2, RRM domain, GST-SBP tag (RBFOX2, Homo sapiens, UniProt O43251-10, residues 100-194)
Method: RNA Bind-n-Seq
Form: RNA
Medium: in vitro
Concentration: 365 nM
Setting: natural RNA segment, single round, ends assumed
Reference: no-protein control
Direction: higher = stronger binding
Residues (chain): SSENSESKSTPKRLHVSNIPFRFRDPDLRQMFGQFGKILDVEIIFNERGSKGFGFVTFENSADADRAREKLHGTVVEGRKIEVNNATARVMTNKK
Oligonucleotide	RBNS enrichment (R)
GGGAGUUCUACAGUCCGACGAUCUGUGUGUAGACAUUGUAUUCCACAAUUUUGAAUGGCUGUGUUUUACCUCUAAAUAAAUGAAUUCAGAAAAGUGUGUAGUGUACUGAUUAUUUAGCAGCUUAACUUUAGGUUGGAAUUCUCGGGUGCCAA	1.63
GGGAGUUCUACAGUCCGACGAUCUGGAUGCCCCAGCGCCUGGGGUGAACAGCCAGACGCAGCAGACACGACUCCAGUGUCAGAGCAGGGCCACCUGGGGUGUGUAGGAUGGGUACAGGGUUCCCAGCCUCAGGUGGAAUUCUCGGGUGCCAA	0.733
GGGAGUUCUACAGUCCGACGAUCAAAAAAAAAAAAAAAAAAAAAAAGAAAAACUGUGGAAGUAGCCAGCCUUGUACGACUGCAAAAGCAGCCUCGCUGACUGGAUUUUUUUUUUUUUUAAAGAUUUAUUUAUAUGGAAUUCUCGGGUGCCAA	1.14
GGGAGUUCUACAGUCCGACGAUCUUCUGGUAUUCUGGGUUCAAAAGUAUGACUUGAGAGUGUUGCUCUGGUAUUCUGAGAGUUGCUCUGUAUUCUGGGUUCUGAAGAUUAUUUGAAAAAUAACUCCUACUACAUGGAAUUCUCGGGUGCCAA	0.412
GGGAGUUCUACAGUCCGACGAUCGAAUAGGUACUUUUGGAAGUUCAAAGCAAGUGGCAAACUUUCAUAUAAACAUGUUAAAUGCAGGAUAUUUCUGCUUGGGGCAUCUUUGUGAUUUGUACUUUCCUACAAUUUGGAAUUCUCGGGUGCCAA	0.384
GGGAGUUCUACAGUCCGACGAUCGACUGGAAUGUGGGCAGCGCCCACACAGGCUCUGGCCCAUGGCUUCCUACUGGCAGCUCCAGGCACCCCCCUCUCACCACGCCGUUUGCUGGCUCUGACACUGUUGGGUGUGGAAUUCUCGGGUGCCAA	0.43
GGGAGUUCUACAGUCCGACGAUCUUAGCUUGUGCUCAAGUCCUCUUGCUGUGUUUUCAGAAGCACUCACAUGUUCUUUCUUUUCCUGAGUGAAAAGCAAAGGUCCCACGGUGUGUGCUGUGGUGCACCGCCUGUGGAAUUCUCGGGUGCCAA	0.249
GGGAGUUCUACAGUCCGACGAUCACACAUGGUUUGGAUGCUUCUAUAUUGGCCCUGCCCAGGUAGAAAGGGUAAGAAGAACAUGUAGAAUCCAGAUUCCCUGAGUGUGAGGGACCCAUGGUGCAUUUGUAAUAUGGAAUUCUCGGGUGCCAA	0.804

Series 3
Target: CCNF, cyclin fold, Cln2 fusion (human)
Method: yeast growth competition, sequencing
Medium: yeast
Setting: strong parent motif
Reference: not given
Direction: higher = stronger binding
Starting sequence: MICAL3 docking peptide (human); LQLRRQLSFSEDS
Variant	normalised enrichment score
LQLRRVLSFSEDS [Q6V]	3.8
LQLIRQLSFSEDS [R4I]	2.33
LQPRRQLSFSEDS [L3P]	5.91
LQLRRQLSFSECS [D12C]	5.84
LQLRRQLSFWEDS [S10W]	5.76
LQLRRQLSFSPDS [E11P]	6.2
LQLRRQLNFSEDS [S8N]	6.82
LHLRRQLSFSEDS [Q2H]	5.58
LTLRRQLSFSEDS [Q2T]	5.26
LQLRRQLSFSEPS [D12P]	5.98
LQLRRNLSFSEDS [Q6N]	1.07
LQRRRQLSFSEDS [L3R]	1.08
LQLRRQLEFSEDS [S8E]	5.95
LQTRRQLSFSEDS [L3T]	7.29
LQARRQLSFSEDS [L3A]	6.97
LQLRRQLSTSEDS [F9T]	0.139
LQSRRQLSFSEDS [L3S]	4.58
LQLRRQLSFVEDS [S10V]	5.03
LQLRRQLSFSLDS [E11L]	5.87
LQLWRQLSFSEDS [R4W]	1.9
LQLRRQLSFSEAS [D12A]	5.85
LYLRRQLSFSEDS [Q2Y]	5.39
LQLRRHLSFSEDS [Q6H]	4.5
LRLRRQLSFSEDS [Q2R]	5.36
LQLRRQLSFSQDS [E11Q]	5.36

Series 4
Target: ABI1, truncated, D143A, DHFR fusion (Arabidopsis thaliana)
Method: DHFR PCA, deep sequencing
Medium: yeast
Setting: methotrexate growth selection, single substitutions
With: (+)-ABA 0.032 µM
Reference: wild-type fitted maximum
Direction: higher = stronger binding
Starting sequence: PYL1, truncated, DHFR fusion (Arabidopsis thaliana); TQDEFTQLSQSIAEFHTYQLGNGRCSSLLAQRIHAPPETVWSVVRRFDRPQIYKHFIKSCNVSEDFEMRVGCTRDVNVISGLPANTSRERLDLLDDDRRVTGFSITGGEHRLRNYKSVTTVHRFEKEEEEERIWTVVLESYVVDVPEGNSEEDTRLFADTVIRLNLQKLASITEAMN; partner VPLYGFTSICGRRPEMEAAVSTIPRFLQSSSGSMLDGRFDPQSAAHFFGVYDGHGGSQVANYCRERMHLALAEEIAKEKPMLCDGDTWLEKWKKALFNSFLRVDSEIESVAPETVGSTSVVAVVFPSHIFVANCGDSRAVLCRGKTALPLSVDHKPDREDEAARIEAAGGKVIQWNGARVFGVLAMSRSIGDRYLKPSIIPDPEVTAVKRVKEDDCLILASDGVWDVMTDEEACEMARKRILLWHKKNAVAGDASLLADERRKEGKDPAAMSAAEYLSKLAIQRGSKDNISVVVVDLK
Variant	relative binding score [%]
L93Y	13
F5L	41.5
E151A	44.3
M176F	-4.72
K58S	9.83
R163H	2.34
D3Q	31.3
Q2S	25.8
E147K	8.63
H34L	20.4
A13N	24.4
Q7C	18.8
F15G	-1.46

Series 5
Target: Probable WRKY transcription factor 33, N-terminal DNA-binding domain (WRKY33, Arabidopsis thaliana, UniProt Q8S8P5, residues 169-264)
Method: DNA-protein interaction ELISA
Form: double-stranded DNA, one strand shown
Medium: in vitro, bacterial lysate
Concentration: not given
Setting: whole dsDNA probe, crude lysate protein
Reference: highest signal in screen
Direction: higher = stronger binding
Residues (chain): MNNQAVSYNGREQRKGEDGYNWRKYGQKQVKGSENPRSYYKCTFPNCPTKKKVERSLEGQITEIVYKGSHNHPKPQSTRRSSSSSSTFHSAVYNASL
Oligonucleotide	relative absorbance
AAAAAACTGGATGCGCTCACCAGTTAAAAA	19.8 % of maximum
AAAAAAGCTCATGGCCCTGAGGATCTAAAA	22.2 % of maximum
AAAAAAGTCCCGCGCTAAGCTTTAAAAAAA	29.4 % of maximum
AAAAAAGCTCGTCTCCGCCTCCTGCTAAAA	21.3 % of maximum
AAAAAAACGATACGGTATCTAGAAAA	22.4 % of maximum
AAAAAAAGTCTGCGGCTGCAGGGCGGAAAA	21.4 % of maximum
AAAAAAGGCCGTTGGACCTCGGTCTAAAAA	20.1 % of maximum
AAAAAAGGGTTTAGATGTCCTTCAAAAAAA	19.6 % of maximum
AAAAAATAAGTAACCGAACGAAACTCAAAA	23 % of maximum
AAAAAAAACTCCCATACTACAACCGAAAAA	21.3 % of maximum
AAAAAAACGGTGTCATAGTATTAGTGAAAA	19.2 % of maximum
AAAAAAACTCAACTAGTGAACCACCAAAA	21.7 % of maximum
AAAAAAAAAAAAAAAAAAAAAAAAAAAAAA	18.1 % of maximum
AAAAAATGGTCGTCGTACTCGTGGTCAAAA	59.2 % of maximum

Repeated from above (series 3):
Variant	normalised enrichment score
LQSRRQLSFSEDS [L3S]	4.58
LQLWRQLSFSEDS [R4W]	1.9
LQTRRQLSFSEDS [L3T]	7.29
LYLRRQLSFSEDS [Q2Y]	5.39
